# Published values collected from several papers.
# Compare with care: the assays were run in different laboratories. ± gives the spread as reported.
SMILES,tested on,assay,system,conditions,scale,endpoint,value
C=C(c1ncc(C(=O)O)cn1)c1cc2c(cc1C)C(C)(C)CCC2(C)C,,"RNA sequencing, refers to: Ifit3 mRNA","rat, brain","dose not given, 24 h, single dose",relative to: vehicle,log2 fold change,-0.88
N[C@@H](CC(=O)O)C(=O)N1CCC[C@H]1C(=O)NCC(=O)NCC(=O)O,,"diketopiperazine formation, Arrhenius plot, ESI-MS",1-propanol,"70, 80, 90 °C, 0.5% acetic acid",,activation energy,17 ± 0.239 kcal/mol
O=C1/C(=C/c2ccc(O)c(O)c2)Oc2cc(O)c3c(oc4cc(O)c(O)cc43)c21,,"ABTS scavenging, absorbance",,,,EC50,2.18 mM
CCCC[C@H](NC(=O)[C@@H](NC(=O)[C@H](CC(=O)O)NC(=O)[C@H](CCC(N)=O)NC(=O)[C@H](CC(C)C)NC(=O)[C@H](CC(C)C)NC(=O)[C@H](CCCN)NC(=O)[C@H](CCCNC(=N)N)NC(=O)[C@H](C)NC(=O)[C@H](CO)NC(=O)[C@H](CC(C)C)NC(=O)[C@H](CCC(N)=O)NC(=O)[C@H](CC)NC(=O)[C@H](CC(C)C)NC(=O)[C@@H](NC(=O)[C@H](CCCN)NC(=O)[C@H](CCCNC(=N)N)NC(=O)[C@H](Cc1ccc(O)cc1)NC(=O)[C@H](CO)NC(=O)[C@H](CC(N)=O)NC(=O)[C@@H](NC(=O)[C@H](Cc1ccccc1)NC(=O)[C@@H](NC(=O)[C@H](C)NC(=O)[C@H](CC(=O)O)NC(=O)[C@@H](C)NC(=O)[C@H](Cc1ccc(O)cc1)NC)[C@@H](C)CC)[C@@H](C)O)C(C)C)[C@@H](C)CC)C(=O)N[C@@H](CC(=O)O)C(=O)NCCCCNC(=N)N,,GH release,"male rat, serum","subcutaneous, dose not given, 30 min",relative to: GHRH(1-29)NH2,relative potency,132
CCCCCCCCCCCCCCCC(=O)N[C@@H](CCC(=O)NCCCC[C@H](NC(=O)[C@H](CC(=O)O)NC(=O)[C@H](CO)NC(=O)[C@@H](NC(=O)[C@H](Cc1ccccc1)NC(=O)[C@@H](NC(=O)CNC(=O)[C@H](CCC(N)=O)NC(=O)[C@H](CO)NC(=O)[C@@H](N)Cc1c[nH]cn1)[C@@H](C)O)[C@@H](C)O)C(=O)N[C@@H](CO)C(=O)N[C@@H](CCC(=O)O)C(=O)N[C@@H](Cc1ccc(O)cc1)C(=O)N[C@@H](CC(C)C)C(=O)N[C@@H](CC(=O)O)C(=O)N[C@@H](CO)C(=O)N[C@@H](CCC(=O)O)C(=O)N[C@@H](CCCNC(=N)N)C(=O)N[C@@H](C)C(=O)N[C@@H](CCCNC(=N)N)C(=O)N[C@@H](CC(=O)O)C(=O)N[C@@H](Cc1ccccc1)C(=O)N[C@H](C(=O)N[C@@H](C)C(=O)N[C@@H](Cc1c[nH]c2ccccc12)C(=O)N[C@@H](CC(C)C)C(=O)N[C@@H](CCC(=O)O)C(=O)N[C@@H](C)C(=O)NCC(=O)NCC(=O)O)C(C)C)C(=O)O,,,diet-induced obese mouse,"subcutaneous, 10 nmol/kg daily, 4 weeks",relative to: starting body weight,body weight loss,21%
CN(C)C(=O)c1ccnc(N2Cc3cn(Cc4ccc(F)cc4F)nc3C2)n1,,,"cuprizone-fed mice, corpus callosum",dose not given,,NeuN+ cell number,no effect
CC[C@H](C)[C@H](NC(=O)[C@H](CCCCN)NC(=O)[C@H](CC(N)=O)NC(=O)CNC(=O)[C@@H](NC(=O)[C@H](C)NC(=O)[C@H](CCCNC(=N)N)NC(=O)[C@H](CC(C)C)NC(=O)[C@H](CCCCN)NC(=O)[C@H](CCCCN)NC(=O)[C@H](CCCCN)NC(=O)[C@H](C)NC(=O)[C@H](CCCCN)NC(=O)[C@@H]1CSSC[C@H](NC(=O)[C@H](CCCNC(=N)N)NC(=O)CN)C(=O)N[C@@H](CC(N)=O)C(=O)N[C@@H](CC(C)C)C(=O)N[C@@H](CC(C)C)C(=O)N1)C(C)C)C(=O)N[C@@H](CCCCN)C(=O)N[C@@H](CCC(=O)O)C(=O)N[C@H](C(=O)N[C@@H](CCCCN)C(=O)N[C@@H](CC(N)=O)C(=O)N[C@H](C(=O)N[C@H](C(=O)N[C@@H](Cc1ccccc1)C(=O)N[C@@H](CC(N)=O)C(=O)N[C@@H](CCCNC(=N)N)C(=O)O)C(C)C)C(C)C)[C@@H](C)CC,,,"BALB/c mouse, CLP sepsis, lung","intraperitoneal, 5 mg/kg, 12 h post-surgery",,MPO activity,decreased
CCCC[C@H](NC(=O)[C@@H](NC(=O)[C@H](CC(=O)O)NC(=O)[C@H](CCC(N)=O)NC(=O)[C@H](CC(C)C)NC(=O)[C@H](CC(C)C)NC(=O)[C@H](CCCN)NC(=O)[C@H](CCCNC(=N)N)NC(=O)[C@H](C)NC(=O)[C@H](CO)NC(=O)[C@H](CC(C)C)NC(=O)[C@H](CCC(N)=O)NC(=O)[C@H](CC)NC(=O)[C@H](CC(C)C)NC(=O)[C@@H](NC(=O)[C@H](CCCN)NC(=O)[C@H](CCCNC(=N)N)NC(=O)[C@H](Cc1ccc(O)cc1)NC(=O)[C@H](CO)NC(=O)[C@H](CCC(N)=O)NC(=O)[C@@H](NC(=O)[C@H](Cc1ccccc1)NC(=O)[C@@H](NC(=O)[C@H](C)NC(=O)[C@H](CC(=O)O)NC(=O)[C@@H](C)NC(=O)[C@H](Cc1ccc(O)cc1)NC)[C@@H](C)CC)[C@@H](C)O)C(C)C)[C@@H](C)CC)C(=O)N[C@@H](CC(=O)O)C(=O)N[C@@H](CCCNC(=N)N)C(=O)NCC,,GH release,"rat, male, serum","subcutaneous, 3 µg/kg, 30 min",relative to: reference GHRH agonist JI-38,relative potency,0.96
CC(=N)N(C)c1ccc(C(=O)Nc2ccc(F)cc2C(=O)Nc2ccc(Cl)cn2)cc1,,,human plasma,,,concentration doubling prothrombin time,1.5 ± 0.3 µM
COc1ccc2c(c1)c(CC(=O)OCOC(C)=O)c(C)n2C(=O)c1ccc(Cl)cc1,,hot plate test,BALB/c mice,"75 mg/kg, 0 min",,latency of nociceptive response,10.8 ± 0.59 s
CCCC[C@H](NC(=O)[C@@H](NC(=O)[C@H](CC(=O)O)NC(=O)[C@H](CCC(N)=O)NC(=O)[C@H](CC(C)C)NC(=O)[C@H](CC(C)C)NC(=O)[C@H](CCCN)NC(=O)[C@H](CCCNC(=N)N)NC(=O)[C@H](C)NC(=O)[C@H](CO)NC(=O)[C@H](CC(C)C)NC(=O)[C@H](CCC(N)=O)NC(=O)[C@H](CC)NC(=O)[C@H](CC(C)C)NC(=O)[C@@H](NC(=O)[C@H](CCCN)NC(=O)[C@H](CCCNC(=N)N)NC(=O)[C@H](Cc1ccc(O)cc1)NC(=O)[C@H](CO)NC(=O)[C@H](CCC(N)=O)NC(=O)[C@@H](NC(=O)[C@H](Cc1ccccc1)NC(=O)[C@@H](NC(=O)[C@H](C)NC(=O)[C@H](CC(=O)O)NC(=O)[C@H](C)NC(=O)CCc1ccc(O)cc1)[C@@H](C)CC)[C@@H](C)O)C(C)C)[C@@H](C)CC)C(=O)N[C@@H](CC(=O)O)C(=O)NCCCCNC(=N)N,,GH release,"male rat, serum","subcutaneous, dose not given, 30 min",relative to: GHRH(1-29)NH2,relative potency,112
Cc1cc(O)c(C=O)c2c1C(=O)Oc1c(CO)c(O)c3c(c1O2)C(O)OC3=O (stereo not drawn),,,"rat, male, streptozotocin-induced diabetes, cauda epididymis","10 mg/kg, 9 weeks",,sperm motility,80 ± 5.25%
CCCC[C@H](NC(=O)[C@@H](NC(=O)[C@H](CC(=O)O)NC(=O)[C@H](CCC(N)=O)NC(=O)[C@H](CC(C)C)NC(=O)[C@H](CC(C)C)NC(=O)[C@H](CCCN)NC(=O)[C@H](CCCNC(=N)N)NC(=O)[C@H](C)NC(=O)[C@H](CO)NC(=O)[C@H](CC(C)C)NC(=O)[C@H](CCC(N)=O)NC(=O)[C@H](CC)NC(=O)[C@H](CC(C)C)NC(=O)[C@@H](NC(=O)[C@H](CCCN)NC(=O)[C@H](CCCNC(=N)N)NC(=O)[C@H](Cc1ccc(O)cc1)NC(=O)[C@H](CO)NC(=O)[C@H](CCC(N)=O)NC(=O)[C@@H](NC(=O)[C@H](Cc1ccccc1)NC(=O)[C@@H](NC(=O)[C@H](C)NC(=O)[C@H](CC(=O)O)NC(=O)[C@@H](C)NC(=O)[C@H](Cc1ccc(O)cc1)NC)[C@@H](C)CC)[C@@H](C)O)C(C)C)[C@@H](C)CC)C(=O)N[C@@H](CC(=O)O)C(=O)N[C@@H](CCCNC(=N)N)C(=O)NC,,GH release,"male rat, serum","subcutaneous, dose not given, 15 min",relative to: GHRH(1-29)NH2,relative potency,224
CC(=O)[O-].O.O.O.O.[Mn+2].[O-]c1ccc(Br)cc1C=NCCN1CCOCC1,,DPPH radical scavenging,,240 µM,,inhibition,53.5%
CCC1CC2C(C)=CC3C(=O)CCCC3C=CC(C)=CC2C(=O)O1 (stereo not drawn),,"A11 dot blot, refers to: amyloid-beta oligomers","5XFAD mouse, hippocampus","oral gavage, 30 mg/kg/day, 5 days",relative to: vehicle,oligomer reduction,3.21%
CC/C=C\C/C=C\C/C=C\C/C=C\C/C=C\CCCCOC(CC)C(=O)O (stereo not drawn),,,"APOE*3Leiden.CETP mice, high-fat/cholesterol diet","dose not given, 20 weeks",relative to: control,inflammatory aggregates change,-62%
Cc1nn(-c2ccc(S(=O)(=O)N[C@@H](CO)CC(C)C)cc2)c2nn3nnnc3nc12,PC-3,PI/Hoechst staining,,"0.5 µM, 24 h",,apoptotic cells,8.5 ± 2.12%
CN1CCc2cc(Nc3ncc(C(F)(F)F)c(NCc4cc[nH]n4)n3)ccc2C1,,immunohistochemistry,"C57BL/6 mice GL261 xenograft, tumour",dose not given,relative to: vehicle,CD31 expression,decreased
C[C@@H](O)[C@@H]1NC(=O)[C@H](CCCCN)NC(=O)[C@@H](Cc2ccc(NC(N)=O)cc2)NC(=O)[C@H](Cc2ccc(NC(=O)[C@@H]3CC(=O)NC(=O)N3)cc2)NC(=O)[C@H](NC(=O)[C@H](Cc2ccc(Cl)cc2)NC(=O)CN2CCN(CC(=O)O)CCN(CC(=O)O)CCN(CC(=O)O)CC2)CSSC[C@@H](C(=O)N[C@H](Cc2ccc(O)cc2)C(N)=O)NC1=O [gallium-68 labelled],,PET/CT,"neuroendocrine tumour patients, lesions",60 min post-injection,,median lesion SUVpeak,10
O=c1cc(-c2ccc(O)cc2)oc2c1c(O)cc1oc3cc(O)c(O)cc3c12,,"ABTS scavenging, absorbance",,,,EC50,2.99 mM
CC[C@H](C)[C@@H]1NC(=O)[C@H](Cc2ccccc2)NC(=O)[C@H](CCC(=O)O)NC(=O)[C@H](CCCNC(=N)N)NC(=O)CNC(=O)[C@@H](NC(=O)[C@H](CC(C)C)NC(=O)[C@H](CCCNC(=N)N)NC(=O)[C@@H](NC(=O)CNC(=O)[C@H](Cc2ccc(O)cc2)NC(=O)[C@@H]2CCCN2C(=O)[C@H](C)NC(=O)[C@H](C)NC(=O)[C@@H](N)CCCNC(=N)N)C(C)C)CSSC[C@@H]2NC(=O)[C@@H](NC(=O)[C@H](CO)NC(=O)[C@H](CO)NC(=O)[C@H](CO)NC(=O)[C@H](CC(C)C)NC(=O)CNC(=O)[C@H](C)NC(=O)[C@H](CC(C)C)NC(=O)[C@@H](NC(=O)[C@@H](N)CC(=O)O)C(C)C)CSSC[C@H](NC(=O)CNC(=O)[C@H](Cc3c[nH]c4ccccc34)NC(=O)[C@H](CCCCN)NC2=O)C(=O)N[C@@H](CO)C(=O)N[C@@H](CCCCN)C(=O)N[C@@H](CO)C(=O)N[C@@H](CCC(=O)O)C(=O)N[C@@H]([C@@H](C)CC)C(=O)N[C@@H](CO)C(=O)N[C@@H](CO)C(=O)N[C@@H](CC(C)C)C(=O)N[C@H](C(=O)O)CSSC[C@@H](C(=O)NCC(=O)NCC(=O)N[C@@H](CO)C(=O)N[C@@H](CCCNC(=N)N)C(=O)N[C@@H](Cc2c[nH]c3ccccc23)C(=O)O)NC(=O)[C@H]([C@@H](C)O)NC(=O)[C@H](Cc2ccccc2)NC(=O)[C@H]([C@@H](C)CC)NC(=O)[C@H](C(C)C)NC(=O)[C@H](C)NC(=O)[C@H](CCCNC(=N)N)NC1=O,,novelty-suppressed feeding test,fasted female Sprague-Dawley rats,"intranasal, 275 µg/kg, 10 min",relative to: vehicle,total distance travelled,no effect

# A few entries again:
SMILES,tested on,assay,system,conditions,scale,endpoint,value
CC(=N)N(C)c1ccc(C(=O)Nc2ccc(F)cc2C(=O)Nc2ccc(Cl)cn2)cc1,,,human plasma,,,concentration doubling prothrombin time,1.5 ± 0.3 µM
COc1ccc2c(c1)c(CC(=O)OCOC(C)=O)c(C)n2C(=O)c1ccc(Cl)cc1,,hot plate test,BALB/c mice,"75 mg/kg, 0 min",,latency of nociceptive response,10.8 ± 0.59 s
